Published values collected from several papers.
Each numbered part is a random draw from the data of one study; scales do not carry over between parts. Positions count from the first letter of the parent shown.
Chain of UniProt P07948 (whole entry, looked up): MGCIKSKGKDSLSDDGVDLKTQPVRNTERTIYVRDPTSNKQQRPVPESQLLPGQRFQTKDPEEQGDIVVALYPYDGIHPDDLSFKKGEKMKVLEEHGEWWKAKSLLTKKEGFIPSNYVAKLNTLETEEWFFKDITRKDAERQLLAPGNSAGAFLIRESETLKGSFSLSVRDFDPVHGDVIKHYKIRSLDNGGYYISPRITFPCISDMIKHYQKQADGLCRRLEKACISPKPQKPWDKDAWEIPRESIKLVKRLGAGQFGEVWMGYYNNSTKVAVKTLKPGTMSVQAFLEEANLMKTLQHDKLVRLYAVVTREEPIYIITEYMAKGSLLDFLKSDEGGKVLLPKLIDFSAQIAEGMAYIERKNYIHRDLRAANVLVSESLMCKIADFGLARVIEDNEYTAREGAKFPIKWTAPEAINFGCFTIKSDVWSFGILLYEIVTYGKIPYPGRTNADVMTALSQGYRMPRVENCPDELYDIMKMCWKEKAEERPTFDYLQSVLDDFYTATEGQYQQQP

Series 1
Target: NFE2, bZIP domain (human)
Technique: DHFR protein complementation
Matrix: yeast
Notes: single substitutions, most at no-binding floor
Reference: wild-type JUN-FOS pair
Direction: higher = stronger binding
Starting sequence: JUN, bZIP domain (human); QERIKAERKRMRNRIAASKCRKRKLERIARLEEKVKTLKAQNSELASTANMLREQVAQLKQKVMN; partner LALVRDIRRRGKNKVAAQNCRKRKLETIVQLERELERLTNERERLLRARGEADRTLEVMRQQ
| Variant | binding fitness [natural log] |
| --- | --- |
| L59C | -1.47 |
| T48P | -1.43 |
| E33A | -1.4 |
| K39F | -1.08 |
| I28E | -1.38 |
| A29Y | -1.34 |
| E44I | -1.53 |
| L45P | -1.48 |

Series 2
Target: TAR DNA-binding protein 43, full length, His tag (TARDBP, Homo sapiens, UniProt Q13148, residues 1-414)
Technique: RNA Bind-n-Seq
Form: RNA
Matrix: in vitro
Concentration: 20 nM
Notes: 6-mer, flanks averaged, single round
With: 150 mM LiCl
Reference: input library
Direction: higher = stronger binding
| Strand | 6-mer enrichment (R) |
| --- | --- |
| UAAUUA | 1.08 |
| GUGAGA | 1.2 |
| GAAAUC | 0.794 |
| UUAGAA | 0.982 |
| GAAGGU | 1.05 |
| UUUACC | 1.04 |
| UCUGGA | 0.91 |
| AAGCAC | 0.835 |

Series 3
Target: CRIPT, C-terminal peptide
Technique: DHFR complementation, deep sequencing
Matrix: yeast
Notes: single substitutions, model-inferred values
Reference: wild type
Direction: higher = weaker binding
Starting sequence: ERBIN, PDZ domain 1 (human); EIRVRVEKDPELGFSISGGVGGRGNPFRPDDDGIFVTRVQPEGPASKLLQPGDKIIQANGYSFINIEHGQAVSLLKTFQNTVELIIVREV; partner TKNYKQTSV
| Variant | binding free energy change [kcal/mol] |
| --- | --- |
| L75D | 1.18 |
| R3N | -0.0426 |
| K47I | 0.257 |
| E89H | 0.102 |
| P41E | 0.231 |
| D32W | 0.372 |
| L84N | 0.608 |
| V82P | 0.962 |

Mixed results
| Structure (SMILES) | target | read-out | action | concentration | reference | endpoint | result |
| --- | --- | --- | --- | --- | --- | --- | --- |
| N#CC(c1ccnc(NCCc2cccnc2)n1)c1nc2ccccc2s1 (stereo not shown) | Tyrosine-protein kinase Lyn (LYN, Homo sapiens, UniProt P07948) | enzyme activity | inhibitor | 0.5 µM | control | remaining activity | 96.4% |

Excerpt of the above (series 1):
| Variant | binding fitness [natural log] |
| --- | --- |
| L45P | -1.48 |
| K39F | -1.08 |
